# Values quoted from earlier work as cited in several papers.
# Lines come from different studies, so protocols differ. ± gives the spread as reported.
# CA12: Carbonic anhydrase 12 (CA12, Homo sapiens, UniProt O43570)
# UniProt O43570, sequence (whole entry, looked up): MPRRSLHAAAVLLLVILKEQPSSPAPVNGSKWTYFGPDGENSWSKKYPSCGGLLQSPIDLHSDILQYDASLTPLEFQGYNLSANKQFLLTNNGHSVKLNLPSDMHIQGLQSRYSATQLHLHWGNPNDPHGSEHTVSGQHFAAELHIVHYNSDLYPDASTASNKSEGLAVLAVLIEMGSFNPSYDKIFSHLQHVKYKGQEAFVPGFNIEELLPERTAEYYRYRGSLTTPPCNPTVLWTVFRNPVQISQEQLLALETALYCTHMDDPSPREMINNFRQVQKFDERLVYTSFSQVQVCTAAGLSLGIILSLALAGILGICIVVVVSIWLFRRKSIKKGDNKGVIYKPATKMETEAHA
# UniProt P16442, sequence (whole entry, unmodified, looked up): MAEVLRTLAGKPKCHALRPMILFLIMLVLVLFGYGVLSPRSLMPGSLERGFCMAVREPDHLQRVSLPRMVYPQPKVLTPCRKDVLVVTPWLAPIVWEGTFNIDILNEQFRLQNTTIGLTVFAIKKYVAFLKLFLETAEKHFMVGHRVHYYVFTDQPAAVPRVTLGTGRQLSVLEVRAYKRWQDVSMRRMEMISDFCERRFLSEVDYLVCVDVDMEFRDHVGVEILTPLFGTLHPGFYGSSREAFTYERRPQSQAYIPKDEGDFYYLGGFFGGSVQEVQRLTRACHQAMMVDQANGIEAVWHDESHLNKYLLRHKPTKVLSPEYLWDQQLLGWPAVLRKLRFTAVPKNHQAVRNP
# UniProt P98170, sequence (whole entry, looked up): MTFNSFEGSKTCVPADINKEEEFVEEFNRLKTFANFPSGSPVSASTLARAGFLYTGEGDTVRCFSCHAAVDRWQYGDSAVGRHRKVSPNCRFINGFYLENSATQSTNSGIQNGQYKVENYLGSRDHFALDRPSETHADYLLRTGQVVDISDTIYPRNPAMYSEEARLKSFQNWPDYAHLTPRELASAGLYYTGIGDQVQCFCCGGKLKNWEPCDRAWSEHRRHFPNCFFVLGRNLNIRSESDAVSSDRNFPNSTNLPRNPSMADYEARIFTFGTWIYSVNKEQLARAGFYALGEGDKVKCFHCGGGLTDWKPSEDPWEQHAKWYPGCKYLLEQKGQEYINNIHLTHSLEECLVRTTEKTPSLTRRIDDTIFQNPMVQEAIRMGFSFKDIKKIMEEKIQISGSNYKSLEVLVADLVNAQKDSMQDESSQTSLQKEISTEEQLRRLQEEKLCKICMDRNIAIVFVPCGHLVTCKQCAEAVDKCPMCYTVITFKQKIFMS
# UniProt Q13546, sequence (whole entry, looked up): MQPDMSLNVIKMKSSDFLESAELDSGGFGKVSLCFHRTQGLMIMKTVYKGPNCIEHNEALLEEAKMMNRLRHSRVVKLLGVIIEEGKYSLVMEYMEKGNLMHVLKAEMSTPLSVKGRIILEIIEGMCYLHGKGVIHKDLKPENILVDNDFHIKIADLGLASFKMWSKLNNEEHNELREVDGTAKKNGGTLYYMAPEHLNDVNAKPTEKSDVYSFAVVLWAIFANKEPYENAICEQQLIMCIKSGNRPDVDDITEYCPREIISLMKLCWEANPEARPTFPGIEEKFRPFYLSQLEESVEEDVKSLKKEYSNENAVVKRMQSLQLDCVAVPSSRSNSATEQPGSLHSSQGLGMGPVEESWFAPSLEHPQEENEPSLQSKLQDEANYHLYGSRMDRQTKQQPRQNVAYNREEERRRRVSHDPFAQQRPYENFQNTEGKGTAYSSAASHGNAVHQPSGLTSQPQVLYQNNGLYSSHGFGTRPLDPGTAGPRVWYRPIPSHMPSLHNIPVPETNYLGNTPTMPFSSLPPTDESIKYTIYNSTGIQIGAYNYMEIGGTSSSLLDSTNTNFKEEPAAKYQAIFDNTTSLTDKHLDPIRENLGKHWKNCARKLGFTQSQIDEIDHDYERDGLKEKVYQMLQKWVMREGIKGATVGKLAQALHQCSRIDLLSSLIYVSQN
# UniProt Q05097, sequence (whole entry, looked up): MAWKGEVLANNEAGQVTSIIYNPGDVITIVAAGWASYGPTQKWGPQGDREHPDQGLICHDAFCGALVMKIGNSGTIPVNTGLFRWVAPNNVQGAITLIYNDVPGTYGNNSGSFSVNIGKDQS
# UniProt P13569, sequence (whole entry, looked up): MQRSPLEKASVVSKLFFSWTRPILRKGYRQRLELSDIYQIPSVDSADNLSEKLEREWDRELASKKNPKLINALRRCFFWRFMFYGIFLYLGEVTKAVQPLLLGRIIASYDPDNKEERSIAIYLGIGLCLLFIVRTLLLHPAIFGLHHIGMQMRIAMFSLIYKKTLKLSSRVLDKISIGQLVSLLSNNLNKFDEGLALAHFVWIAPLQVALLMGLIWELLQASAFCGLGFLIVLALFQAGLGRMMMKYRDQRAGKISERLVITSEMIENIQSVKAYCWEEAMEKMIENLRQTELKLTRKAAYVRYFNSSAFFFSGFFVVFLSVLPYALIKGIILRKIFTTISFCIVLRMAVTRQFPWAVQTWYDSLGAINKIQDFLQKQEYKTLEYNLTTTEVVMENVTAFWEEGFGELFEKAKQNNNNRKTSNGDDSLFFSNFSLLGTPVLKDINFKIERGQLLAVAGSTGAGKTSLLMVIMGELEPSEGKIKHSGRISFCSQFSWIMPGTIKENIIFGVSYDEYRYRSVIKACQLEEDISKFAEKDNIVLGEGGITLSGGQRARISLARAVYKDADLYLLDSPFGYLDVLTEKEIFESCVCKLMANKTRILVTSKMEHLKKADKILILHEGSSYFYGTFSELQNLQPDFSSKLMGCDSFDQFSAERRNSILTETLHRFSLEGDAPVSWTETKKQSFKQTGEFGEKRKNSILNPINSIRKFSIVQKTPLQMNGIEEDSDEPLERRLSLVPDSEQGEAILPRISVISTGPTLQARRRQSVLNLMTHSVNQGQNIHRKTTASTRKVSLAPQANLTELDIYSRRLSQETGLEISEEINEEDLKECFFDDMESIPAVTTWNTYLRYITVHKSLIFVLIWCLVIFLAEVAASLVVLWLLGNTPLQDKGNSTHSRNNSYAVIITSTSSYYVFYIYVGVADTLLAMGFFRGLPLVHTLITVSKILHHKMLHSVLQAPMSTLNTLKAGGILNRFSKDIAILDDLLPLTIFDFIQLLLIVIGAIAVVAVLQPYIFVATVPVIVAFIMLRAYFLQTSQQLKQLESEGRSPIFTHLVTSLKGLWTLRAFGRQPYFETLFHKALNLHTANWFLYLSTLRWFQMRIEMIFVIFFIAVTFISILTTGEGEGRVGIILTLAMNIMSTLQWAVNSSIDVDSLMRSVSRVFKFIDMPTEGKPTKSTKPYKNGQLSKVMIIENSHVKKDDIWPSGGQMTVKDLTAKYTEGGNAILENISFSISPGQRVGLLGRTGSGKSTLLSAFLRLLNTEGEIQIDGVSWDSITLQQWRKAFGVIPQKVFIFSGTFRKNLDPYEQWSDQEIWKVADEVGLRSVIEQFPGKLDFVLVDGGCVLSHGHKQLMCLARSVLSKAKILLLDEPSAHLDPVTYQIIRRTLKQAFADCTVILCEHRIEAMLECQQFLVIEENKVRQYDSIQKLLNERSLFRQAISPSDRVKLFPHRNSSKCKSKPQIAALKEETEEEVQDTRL
# UniProt P21796, sequence (whole entry, looked up): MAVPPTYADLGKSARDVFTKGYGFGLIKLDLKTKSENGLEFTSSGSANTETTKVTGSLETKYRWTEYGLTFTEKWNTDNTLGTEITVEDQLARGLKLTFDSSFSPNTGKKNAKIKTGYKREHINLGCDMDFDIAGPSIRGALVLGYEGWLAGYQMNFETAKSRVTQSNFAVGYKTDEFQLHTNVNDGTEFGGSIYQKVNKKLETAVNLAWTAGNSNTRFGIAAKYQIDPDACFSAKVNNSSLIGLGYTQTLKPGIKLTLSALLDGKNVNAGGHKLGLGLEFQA
# UniProt P53350, sequence (whole entry, looked up): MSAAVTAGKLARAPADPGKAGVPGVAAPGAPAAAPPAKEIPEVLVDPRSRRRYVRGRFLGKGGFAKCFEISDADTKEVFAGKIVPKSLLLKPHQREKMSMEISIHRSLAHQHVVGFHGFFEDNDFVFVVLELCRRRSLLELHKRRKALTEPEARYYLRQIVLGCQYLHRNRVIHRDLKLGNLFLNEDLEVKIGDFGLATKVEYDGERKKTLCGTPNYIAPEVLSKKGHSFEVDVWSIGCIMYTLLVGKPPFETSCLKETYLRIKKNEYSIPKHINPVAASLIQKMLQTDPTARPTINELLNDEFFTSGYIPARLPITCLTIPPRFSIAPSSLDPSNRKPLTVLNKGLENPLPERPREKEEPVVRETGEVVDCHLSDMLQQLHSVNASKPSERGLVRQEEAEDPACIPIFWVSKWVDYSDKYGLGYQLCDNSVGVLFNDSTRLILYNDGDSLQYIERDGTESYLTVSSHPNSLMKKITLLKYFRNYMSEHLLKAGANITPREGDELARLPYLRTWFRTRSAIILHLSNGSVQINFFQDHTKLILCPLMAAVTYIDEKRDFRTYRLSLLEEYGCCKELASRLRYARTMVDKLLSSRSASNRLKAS
SMILES,target,test,conditions,Kd
NS(=O)(=O)c1c(F)c(F)c(S(=O)(=O)CCO)c(N[C@H]2CCc3ccccc32)c1F,CA12,fluorescent thermal shift,"pH 7.0, 37 °C, observed",8.3 nM
CCOC(=O)c1oc2ccccc2c1CBr,"Serine/threonine-protein kinase PLK1, polo-box domain (PLK1, Homo sapiens, UniProt P53350)",microscale thermophoresis,,13000 nM
NS(=O)(=O)c1c(F)c(F)c(S(=O)(=O)CCc2ccccc2)c(N[C@H]2CCc3ccccc32)c1F,CA12,fluorescent thermal shift,"pH 7.0, 37 °C, observed",41 nM
O=C(Nc1cccc(C(=O)Nc2ccc(S(=O)(=O)O)c3cc(S(=O)(=O)O)cc(S(=O)(=O)O)c23)c1)Nc1cccc(C(=O)Nc2ccc(S(=O)(=O)O)c3cc(S(=O)(=O)O)cc(S(=O)(=O)O)c23)c1,"E3 ubiquitin-protein ligase XIAP, BIR1 domain (XIAP, Homo sapiens, UniProt P98170)","binding, tryptophan fluorescence",,24000 ± 4000 nM
NS(=O)(=O)c1c(F)c(F)c(S(=O)(=O)CCO)c(NC2CCCCCCCCCCC2)c1F,CA12,fluorescent thermal shift,"pH 7.0, 37 °C, observed",5 nM
CN[C@@H](C)C(=O)Nc1nc(-c2ccc(Br)cc2)c(-c2ccccc2)s1,XIAP BIR3 domain,,,740 nM
O=C1Nc2ccc(I)cc2C1=Cc1cc(Br)c(O)c(Br)c1,LC3B (recombinant),small molecule microarray,,468 nM
CN1CCN(/C=C2\CCn3c2nc(=O)c2c(Cl)cccc23)CC1,SMARCA4,binding,,417 nM
OCCn1cc(CO[C@@H]2O[C@H](CO)[C@H](O)[C@H](O)[C@H]2O)nn1,"PA-I galactophilic lectin (lecA, Pseudomonas aeruginosa, UniProt Q05097)",ITC,,22000 nM
O=C(Nc1cccc(Br)c1)Nc1cc(Oc2ccc3nc(NC(=O)C4CC4)sc3c2)ccc1F,"Receptor-interacting serine/threonine-protein kinase 1 (RIPK1, Homo sapiens, UniProt Q13546)",,,> 5000 nM
CC[C@H](C)[C@H](NC(=O)[C@H](CC(=O)O)NC(=O)[C@H](CC(=O)O)NC(=O)[C@@H]1CCCN1C(=O)[C@H](CO)NC(=O)[C@H](CC(C)C)NC(=O)[C@H](CCSC)NC(=O)[C@H](CC(C)C)NC(=O)[C@H](CC(=O)O)NC(=O)[C@H](CC(=O)O)NC(=O)[C@@H](N)CCSC)C(=O)N[C@@H](CCC(=O)O)C(=O)N[C@@H](CCC(N)=O)C(=O)N[C@@H](Cc1c[nH]c2ccccc12)C(=O)N[C@@H](Cc1ccccc1)C(=O)N[C@H](C(=O)N[C@@H](CCC(=O)O)C(=O)N[C@@H](CC(=O)O)C(=O)O)[C@@H](C)O,DBD-F,fluorescence anisotropy,,99900 nM
NS(=O)(=O)c1c(F)c(F)c(S(=O)(=O)CCc2ccccc2)c(N2CCOCC2)c1F,CA12,fluorescent thermal shift,"pH 7.0, 37 °C, observed",150 nM
O=C(CC(CO)N1CCN(c2ccc(OC(F)(F)F)cc2)CC1)Nc1ccc(Cl)cc1 (stereo not drawn),"Non-selective voltage-gated ion channel VDAC1 (VDAC1, Homo sapiens, UniProt P21796)",binding,,53000 nM
O=C(O)c1cc([N+](=O)[O-])ccc1NCCCc1ccccc1,"Cystic fibrosis transmembrane conductance regulator, gating site (CFTR, Homo sapiens, UniProt P13569)",gating site binding,,80000 nM
CN1CCN(c2ccc3nc(-c4ccc5nc(-c6cccc(OCCCC(=O)NCCCN=[N+]=[N-])c6)[nH]c5c4)[nH]c3c2)CC1,5'CGG/3'GGC RNA motif,binding,,375 ± 26 nM
CC(C)(C)Nc1c(F)c(S(N)(=O)=O)c(F)c(F)c1S(=O)(=O)CCc1ccccc1,CA12,fluorescent thermal shift,"pH 7.0, 37 °C, observed",67 nM
OC[C@H]1O[C@@H](OCc2cn([C@@H]3O[C@H](CO)[C@@H](n4cc(-c5ccc(-c6cn([C@H]7[C@H](O)[C@@H](O)[C@H](n8cc(CO[C@@H]9O[C@H](CO)[C@H](O)[C@H](O)[C@H]9O)nn8)O[C@@H]7CO)nn6)cc5)nn4)[C@H](O)[C@H]3O)nn2)[C@H](O)[C@@H](O)[C@H]1O,"LecA lectin, Pseudomonas aeruginosa",,,16 nM
C[C@H](NC(=O)[C@@H]1CCCN1C(=O)[C@@H]1CCCN1C(=O)[C@H](C)NC(=O)[C@@H](NC(=O)[C@H](CO)NC(=O)CNC(=O)[C@@H]1CCCN1C(=O)[C@H](C)NC(=O)[C@@H]1CCCN1C(=O)[C@@H](N)CCCNC(=N)N)[C@@H](C)O)C(=O)N[C@@H](Cc1c[nH]cn1)C(=O)NCC(=O)O,16 A monoclonal antibody,SPR,,541 nM
O=C(O)CCC(NC(=O)NC(CCCCNC(=O)C(Cc1ccc2ccccc2c1)NC(=O)C1CCC(CNC(=O)CCCCCNC(=S)Nc2ccc3c(c2)C(=O)OC32c3ccc(O)cc3Oc3cc(O)ccc32)CC1)C(=O)O)C(=O)O (stereo not drawn),glutamate carboxypeptidase III,binding,,~1 nM
CN(C)c1ccc(/N=N/c2ccc(S(=O)(=O)O)cc2)cc1,bovine serum albumin,"binding, equilibrium dialysis",,280000 nM
Cc1ncsc1-c1ccc(CNC(=O)[C@@H]2C[C@@H](O)CN2C(=O)[C@@H](NC(=O)OC(C)(C)C)C(C)(C)C)cc1,VHL-elongin B-elongin C complex,"binding, fluorescence polarization",with: 10 nM FAM-HIF-1α peptide with 15 nM VCB,6500 nM
NS(=O)(=O)c1c(F)c(F)c(SCCO)c(NC(c2ccccc2)C(O)c2ccccc2)c1F (stereo not drawn),CA12,fluorescent thermal shift,"pH 7.0, 37 °C, observed",16 nM
C[n+]1cc(NC(=O)c2ccc3ccc4ccc(C(=O)Nc5cc6ccccc6[n+](C)c5)nc4c3n2)cc2ccccc21,telomeric G-quadruplex DNA,"binding, surface plasmon resonance",,2.1 to 2.4 nM
NS(=O)(=O)c1c(F)c(F)cc(F)c1NC1CCCCCCC1,CA12,fluorescent thermal shift,"pH 7.0, 37 °C, observed",720 nM
COc1ccc2nc3cc(Cl)ccc3c(NCCCCNc3nc(N)nc(N)n3)c2c1,"r(CCG)2 RNA, C–C mismatch",binding,,14000 nM
NS(=O)(=O)c1cc(C(=O)NCCCC(=O)O)c(S(=O)(=O)c2ccccc2)cc1Cl,CA12,fluorescent thermal shift,"pH 7.0, 37 °C, observed",6.4 nM
CCCCCCCCO[C@@H]1O[C@H](CO)[C@H](O)[C@H](O)[C@H]1O[C@@H]1O[C@@H](C)[C@@H](O)[C@@H](O)[C@@H]1O,"Histo-blood group ABO system transferase (ABO, Homo sapiens, UniProt P16442, G235S/G268A/L266M/R176G)","binding, isothermal titration calorimetry",with: UDP,7000 nM

# For quick reference, copied from above:
SMILES,target,test,conditions,Kd
NS(=O)(=O)c1c(F)c(F)cc(F)c1NC1CCCCCCC1,CA12,fluorescent thermal shift,"pH 7.0, 37 °C, observed",720 nM
COc1ccc2nc3cc(Cl)ccc3c(NCCCCNc3nc(N)nc(N)n3)c2c1,"r(CCG)2 RNA, C–C mismatch",binding,,14000 nM
NS(=O)(=O)c1cc(C(=O)NCCCC(=O)O)c(S(=O)(=O)c2ccccc2)cc1Cl,CA12,fluorescent thermal shift,"pH 7.0, 37 °C, observed",6.4 nM
CCCCCCCCO[C@@H]1O[C@H](CO)[C@H](O)[C@H](O)[C@H]1O[C@@H]1O[C@@H](C)[C@@H](O)[C@@H](O)[C@@H]1O,"Histo-blood group ABO system transferase (ABO, Homo sapiens, UniProt P16442, G235S/G268A/L266M/R176G)","binding, isothermal titration calorimetry",with: UDP,7000 nM
